Measurements of several laboratories.
Protocols differ between the studies behind these lines. “And” joins repeats or separate records; there may be more than shown.
TBK1: Serine/threonine-protein kinase TBK1 (TBK1, Homo sapiens, UniProt Q9UHD2)
UniProt P54310, sequence (whole entry, looked up): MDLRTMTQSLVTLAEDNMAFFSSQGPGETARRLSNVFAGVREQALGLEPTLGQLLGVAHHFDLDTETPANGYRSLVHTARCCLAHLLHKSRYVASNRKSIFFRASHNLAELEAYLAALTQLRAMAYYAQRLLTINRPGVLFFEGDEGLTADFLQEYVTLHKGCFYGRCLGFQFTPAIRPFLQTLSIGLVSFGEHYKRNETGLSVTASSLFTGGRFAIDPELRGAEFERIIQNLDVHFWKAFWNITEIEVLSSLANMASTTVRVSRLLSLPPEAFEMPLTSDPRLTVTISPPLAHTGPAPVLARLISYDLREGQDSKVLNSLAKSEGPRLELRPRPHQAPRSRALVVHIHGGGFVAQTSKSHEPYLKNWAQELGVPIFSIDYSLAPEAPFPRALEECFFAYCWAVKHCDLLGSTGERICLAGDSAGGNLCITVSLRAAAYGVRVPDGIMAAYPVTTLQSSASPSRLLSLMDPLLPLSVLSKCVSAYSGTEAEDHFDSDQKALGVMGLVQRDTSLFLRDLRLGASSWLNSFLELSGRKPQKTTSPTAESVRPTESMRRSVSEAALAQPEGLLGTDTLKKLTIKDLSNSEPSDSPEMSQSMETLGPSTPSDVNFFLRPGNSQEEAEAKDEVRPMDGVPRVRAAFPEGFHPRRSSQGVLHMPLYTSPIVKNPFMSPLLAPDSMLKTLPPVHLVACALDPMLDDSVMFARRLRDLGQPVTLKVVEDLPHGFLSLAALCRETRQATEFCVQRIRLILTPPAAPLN
UniProt Q9Y2J8, sequence (whole entry, looked up): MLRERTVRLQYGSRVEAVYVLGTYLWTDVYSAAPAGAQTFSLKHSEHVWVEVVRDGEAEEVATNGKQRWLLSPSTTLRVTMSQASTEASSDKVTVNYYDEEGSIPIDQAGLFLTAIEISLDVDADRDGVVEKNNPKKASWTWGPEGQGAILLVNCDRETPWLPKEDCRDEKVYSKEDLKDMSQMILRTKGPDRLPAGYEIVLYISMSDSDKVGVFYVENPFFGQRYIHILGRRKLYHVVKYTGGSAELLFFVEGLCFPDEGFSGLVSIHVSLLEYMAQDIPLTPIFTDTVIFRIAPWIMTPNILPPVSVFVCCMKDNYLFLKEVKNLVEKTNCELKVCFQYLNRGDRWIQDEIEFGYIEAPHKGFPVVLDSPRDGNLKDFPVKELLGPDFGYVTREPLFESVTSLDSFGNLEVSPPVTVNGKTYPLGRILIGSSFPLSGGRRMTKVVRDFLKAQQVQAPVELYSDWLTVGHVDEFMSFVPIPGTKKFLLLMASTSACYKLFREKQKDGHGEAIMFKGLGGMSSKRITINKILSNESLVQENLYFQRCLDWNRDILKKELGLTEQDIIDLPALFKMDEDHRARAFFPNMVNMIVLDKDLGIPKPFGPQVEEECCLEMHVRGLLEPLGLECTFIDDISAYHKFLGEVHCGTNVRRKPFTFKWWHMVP
UniProt Q9UH17, sequence (whole entry, looked up): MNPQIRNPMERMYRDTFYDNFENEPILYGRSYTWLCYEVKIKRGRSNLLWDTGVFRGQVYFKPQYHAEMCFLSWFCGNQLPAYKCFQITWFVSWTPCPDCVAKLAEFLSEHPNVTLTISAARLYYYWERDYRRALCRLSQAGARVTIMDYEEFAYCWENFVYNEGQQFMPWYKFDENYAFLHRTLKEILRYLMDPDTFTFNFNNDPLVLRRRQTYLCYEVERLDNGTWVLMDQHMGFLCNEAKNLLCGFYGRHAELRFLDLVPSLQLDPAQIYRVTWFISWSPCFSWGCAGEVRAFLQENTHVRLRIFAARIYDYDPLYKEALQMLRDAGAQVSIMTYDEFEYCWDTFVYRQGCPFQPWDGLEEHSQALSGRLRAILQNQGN
UniProt Q9UHD2, sequence (whole entry, looked up): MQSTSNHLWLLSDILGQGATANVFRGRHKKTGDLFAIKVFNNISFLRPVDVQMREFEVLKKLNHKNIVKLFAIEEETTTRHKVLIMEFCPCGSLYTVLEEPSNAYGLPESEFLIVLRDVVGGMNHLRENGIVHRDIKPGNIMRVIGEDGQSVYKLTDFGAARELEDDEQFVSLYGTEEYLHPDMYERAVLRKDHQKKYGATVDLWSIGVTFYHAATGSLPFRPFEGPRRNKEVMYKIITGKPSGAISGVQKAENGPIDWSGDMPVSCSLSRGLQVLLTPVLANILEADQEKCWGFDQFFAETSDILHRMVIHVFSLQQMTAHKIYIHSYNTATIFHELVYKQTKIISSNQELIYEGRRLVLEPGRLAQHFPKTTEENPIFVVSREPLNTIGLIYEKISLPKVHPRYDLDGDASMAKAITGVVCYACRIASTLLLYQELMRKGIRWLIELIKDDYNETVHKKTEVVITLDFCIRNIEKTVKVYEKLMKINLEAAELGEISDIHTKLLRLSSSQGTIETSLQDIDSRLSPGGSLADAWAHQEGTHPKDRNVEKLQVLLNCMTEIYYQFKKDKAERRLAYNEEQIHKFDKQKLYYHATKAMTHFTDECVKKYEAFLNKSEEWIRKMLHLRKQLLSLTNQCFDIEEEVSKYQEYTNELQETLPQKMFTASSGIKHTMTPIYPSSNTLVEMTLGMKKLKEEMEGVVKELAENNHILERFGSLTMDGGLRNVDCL
UniProt P24723, sequence (whole entry, looked up): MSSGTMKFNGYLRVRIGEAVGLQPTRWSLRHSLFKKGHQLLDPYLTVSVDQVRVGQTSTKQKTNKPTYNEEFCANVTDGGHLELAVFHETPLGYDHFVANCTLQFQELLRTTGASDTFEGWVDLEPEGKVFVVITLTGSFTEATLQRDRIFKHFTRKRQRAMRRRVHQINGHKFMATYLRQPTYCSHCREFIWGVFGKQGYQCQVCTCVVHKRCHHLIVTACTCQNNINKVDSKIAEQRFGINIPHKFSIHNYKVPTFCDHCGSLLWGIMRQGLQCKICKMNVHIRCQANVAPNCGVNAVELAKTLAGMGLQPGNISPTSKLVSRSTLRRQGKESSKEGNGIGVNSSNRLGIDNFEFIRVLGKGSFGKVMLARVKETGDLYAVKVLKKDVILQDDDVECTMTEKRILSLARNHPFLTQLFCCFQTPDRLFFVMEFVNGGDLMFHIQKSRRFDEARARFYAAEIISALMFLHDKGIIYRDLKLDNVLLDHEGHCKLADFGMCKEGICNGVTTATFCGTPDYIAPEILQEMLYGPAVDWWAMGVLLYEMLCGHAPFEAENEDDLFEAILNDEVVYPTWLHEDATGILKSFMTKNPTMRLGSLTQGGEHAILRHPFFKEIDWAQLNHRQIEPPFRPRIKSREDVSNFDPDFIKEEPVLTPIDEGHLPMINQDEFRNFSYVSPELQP
UniProt Q13523, sequence (whole entry, looked up): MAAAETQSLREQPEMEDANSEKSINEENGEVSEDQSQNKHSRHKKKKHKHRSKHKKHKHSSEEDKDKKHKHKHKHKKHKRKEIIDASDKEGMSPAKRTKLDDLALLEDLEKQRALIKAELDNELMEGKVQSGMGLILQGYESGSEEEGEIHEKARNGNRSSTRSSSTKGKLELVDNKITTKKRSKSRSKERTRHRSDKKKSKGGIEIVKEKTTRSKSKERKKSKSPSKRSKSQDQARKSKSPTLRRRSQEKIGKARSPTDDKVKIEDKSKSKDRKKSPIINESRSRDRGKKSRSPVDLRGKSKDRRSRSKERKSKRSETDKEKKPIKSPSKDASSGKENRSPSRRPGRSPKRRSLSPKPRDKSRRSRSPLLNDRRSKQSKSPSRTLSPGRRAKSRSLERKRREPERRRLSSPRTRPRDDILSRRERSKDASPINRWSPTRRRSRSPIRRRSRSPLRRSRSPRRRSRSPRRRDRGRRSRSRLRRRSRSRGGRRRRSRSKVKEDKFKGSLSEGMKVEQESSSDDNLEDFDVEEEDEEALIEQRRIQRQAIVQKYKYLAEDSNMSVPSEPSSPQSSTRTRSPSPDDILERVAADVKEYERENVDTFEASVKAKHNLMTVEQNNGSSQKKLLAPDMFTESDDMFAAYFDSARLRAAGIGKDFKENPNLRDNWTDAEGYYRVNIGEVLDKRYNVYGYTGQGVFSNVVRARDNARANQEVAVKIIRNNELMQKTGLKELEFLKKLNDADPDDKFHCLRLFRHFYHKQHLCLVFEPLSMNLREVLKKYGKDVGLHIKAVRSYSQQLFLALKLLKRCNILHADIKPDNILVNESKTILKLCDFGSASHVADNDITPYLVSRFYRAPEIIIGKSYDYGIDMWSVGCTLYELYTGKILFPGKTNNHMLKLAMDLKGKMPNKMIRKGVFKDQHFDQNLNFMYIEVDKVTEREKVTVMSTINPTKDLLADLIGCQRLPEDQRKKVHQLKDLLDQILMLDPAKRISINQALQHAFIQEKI
UniProt P08908, sequence (whole entry, looked up): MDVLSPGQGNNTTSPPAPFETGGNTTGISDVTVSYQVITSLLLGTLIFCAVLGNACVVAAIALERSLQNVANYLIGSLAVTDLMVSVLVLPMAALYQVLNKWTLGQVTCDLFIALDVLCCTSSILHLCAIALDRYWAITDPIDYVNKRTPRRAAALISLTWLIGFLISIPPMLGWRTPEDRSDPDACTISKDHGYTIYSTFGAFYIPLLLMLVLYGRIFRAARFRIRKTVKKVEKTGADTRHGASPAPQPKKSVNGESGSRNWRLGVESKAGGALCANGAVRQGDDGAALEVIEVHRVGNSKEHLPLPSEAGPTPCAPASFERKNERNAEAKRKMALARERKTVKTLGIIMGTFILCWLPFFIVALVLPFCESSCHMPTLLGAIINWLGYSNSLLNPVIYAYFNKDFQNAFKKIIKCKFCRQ

SMILES | target | test | system | setting | how to read | quantity | value
CC[C@@H](C)[C@@H](NC(=O)[C@@H](CCC(N)=O)NC(=O)[C@H](NC(=O)[C@H]1CCCN1C(=O)[C@H](NC(=O)[C@@H](CO)NC(=O)[C@@H](Cc1ccccc1)NC(=O)[C@H]1CCCN1C(=O)[C@@H](CCC(N)=O)NC(=O)[C@H](N)CCSC)[C@H](C)CC)C(C)C)C(=O)N[C@@H](C(=O)N[C@H](CC(C)C)C(=O)N[C@H](CCC(N)=O)C(=O)NCC(=O)N[C@H](CO)C(=O)N[C@H](CCCNC(=N)N)C(=O)N[C@H](CCCNC(=N)N)C(=O)N[C@H](CCCNC(=N)N)C(=O)N[C@H](CCC(N)=O)C(=O)NCC(=O)N[C@H](CCCNC(=N)N)C(N)=O)[C@H](C)O | Kcnma1 (Mus musculus, UniProt Q08460) | ion current, blocker, inside-out patch clamp | Xenopus oocytes | +80 mV, with: 10 µM cytosolic Ca2+ | – | Hill coefficient | 0.77
[CH3][Ti+2][O]C(=O)c1ccc([S][Au][PH](c2ccccc2)(c2ccccc2)c2ccccc2)cc1.c1cc[cH-]c1.c1cc[cH-]c1 | PRKCH (Homo sapiens, UniProt P24723) | kinase activity | – | 1 µM, with: ATP 10 µM | – | remaining activity | 95.8%
O=C1NC(=O)c2c1c1cc(F)c[n+]3c1c1c2c2cc(O)ccc2[n]1[Ru-4]312([N]=C=S)[S+]3CC[S+]1CC[S+]2CC3 (centres unmarked) | STK33 (Homo sapiens, UniProt Q9BYT3) | enzyme activity | – | 100 nM, human enzyme, with: 10 µM ATP | baseline: untreated | remaining activity | 67%
CN(C)[C@H]1C[C@@]23CC[C@@]4(O2)C(=CC[C@]2(C)[C@@H](c5ccc6ccncc6c5)CC[C@H]24)C=C3[C@@H](O)[C@@H]1O | MLKL (Homo sapiens, UniProt Q8NB16) | ATP probe labelling, inhibitor, KiNativ profiling | – | 1 µM | – | inhibition | -4.9%
CC(C)[C@H]1NC(=O)C[C@H]2/C=C/CCSSC[C@@H](NC1=O)C(=O)N[C@H](Cc1cccc3ccccc13)C(=O)NCC(=O)O2 | TBK1 | enzyme activity, inhibitor | – | 10 µM | – | inhibition | 4%
CNC(=O)C[C@H](Cc1ccc(C#N)cc1)NC(=O)c1cc(-c2ccc(CN[C@H](C)c3ccc(C)cc3)o2)ccc1Cl | PRPF4B (Homo sapiens, UniProt Q13523) | enzyme activity, inhibitor | – | 1 µM | – | activity vs control | 90%
N[C@H](C(=O)N1CCCC1)C1CCN(c2nccc3c(-c4ncc(Cl)cc4Cl)cccc23)CC1 | PADI2 (Homo sapiens, UniProt Q9Y2J8) | thermal shift | – | 0.3009 µM | – | melting temperature | 61.8 °C and 61.1 °C
CC(C)CC(O)(CC(C)C)c1cn(C(=O)N2CCCC2)nn1 | Lipe (Mus musculus, UniProt P54310) | enzyme activity, inhibitor | mouse, brain | i.p., 0.8 mg/kg, 4 h, single peptide | baseline: vehicle | ratio of ratios | 0.4 and 0.57 and 0.52
CS(C)(=O)=Nc1ccc(-c2ccc(-c3nc4cc(O[C@@H]5CO[C@H]6[C@@H]5OC[C@H]6O)[nH]c4cc3F)cc2)cc1 | TBK1 | enzyme activity, inhibitor | – | 10 µM | – | inhibition | 2%
C=CC(=O)Nc1cc(-c2ccc(C(=O)N3CCCC(O)(CC)C3)cc2)ccc1F (centres unmarked) | DNA dC->dU-editing enzyme APOBEC-3B, C-terminal domain (Homo sapiens, UniProt Q9UH17) | covalent adduct, intact protein MS, item: mass +397 Da adduct of 25735 Da | – | 500 µM, 5 h, 20-fold molar excess | – | adducted protein | 80% and 100%
Cc1cc(-c2ccc3ccccc3c2)nnc1NCCN1CCN(C)CC1 | HTR1A (Homo sapiens, UniProt P08908) | antagonist | – | 10000 nM | baseline: control | activity | 0%

Excerpt of the above:
SMILES | target | test | system | setting | how to read | quantity | value
C=CC(=O)Nc1cc(-c2ccc(C(=O)N3CCCC(O)(CC)C3)cc2)ccc1F (centres unmarked) | DNA dC->dU-editing enzyme APOBEC-3B, C-terminal domain (Homo sapiens, UniProt Q9UH17) | covalent adduct, intact protein MS, item: mass +397 Da adduct of 25735 Da | – | 500 µM, 5 h, 20-fold molar excess | – | adducted protein | 80% and 100%
